Experimental data from different studies.
Every numbered part comes from another study and shows a few of its results, in no order. Positions count from the first letter of the parent shown.

Series 1 — method: RNA Bind-n-Seq; form: RNA; sample: in vitro; tested at: 200 nM; setting: whole 134-nt RNA, ends assumed; together with: 150 mM LiCl; relative to: input library; direction: higher = stronger binding; measurement: log2 enrichment; all molecules: 7-deaza-guanosine replaces G
Target: Fragile X messenger ribonucleoprotein 1, C-terminal low-complexity region (Fmr1, Mus musculus, UniProt P35922)
Shared flanks, not repeated: GGGAGUUCUACAGUCCGACGAUC … UGGAAUUCUCGGGUGUCAAGG
UCAAGUCCUGUGCUACACAUCGUAUGUACCGAAUCGGGGCCCGGCCCGGCCCGGGAAAGUAUUAUGUUACGCCGUUCGGAUCUGCACUUC: -1.08
CCUCAAGUCCUGUGCUACACAUCGUAUGUACCGAAUCGGAAAGGAGGAAAGGAAAGUAUUAUGUUACGCCGUUCGGAUCUGCACUUCCAG: -0.453
ACCAUGCAGGUGGGCAUCUUUGGGAAGUGGGGCAAGGGGGGGAUAGGGAGGGGGGUAACACUUUGGGAACAGGUGGUCCUAGGUCGUUUC: 1.26
UAACUUUAGAGGAGGAUCGGAUGGAUAUGGCAGUGGACGUGGAUUUGGGGAUGGCUAUAAUGGGUAUGGAGGAGGACCUGGAGGUGGCAA: 0.584
CUCAAGUCCUGUGCUACACAUCGUAUGUACCGAAUCGGAGGUUUUUGGUUUGGAAAGUAUUAUGUUACGCCGUUCGGAUCUGCACUUCCA: -1.22
UGGCCCUGGUGGCAUGCGGGGAGGAAGAGGUGGCCUCAUGGAUCGUGGUGGUCCCGGUAGAAUGUUCAGAGGUGGCCGUGGUGGAGACAG: 0.176
UAACUUUAGAGGGGGAUCUGAUGGAUAUGGCAGUGGACGUGGAUUUGGGGAUGGCUAUAAUGGGUAUGGAGGAGGACCUGGAGGUGGCAA: 0.521
ACCAAGCAGGUGGGCAUCUUUGGGAAGUGGGGCAAGGGGGGGAUAGGGAGGGGGGUAACACUUUGGGAACAGGUGGUCCCAGGUCGUUUC: 1.27
GUCCUGUGCUACACAUCGUAUGUACCGAAUCGGGGUUUUUUUGGGGUGGGGAAAGGGGAAAGUAUUAUGUUACGCCGUUCGGAUCUGCAC: 0.362
UGCAUCUGCACUGGAGAAAUGGAAGACAGCAAUCCGGGAAGCUCAGACUUUCUCCAGGAUGCACGUGCUGCUUGGGAUGCUUGAUGCCUG: -1.63
AAGUCCUGUGCUACACAUCGUAUGUACCGAAUCGGUUUUUGGGUUUUUGGUUUUUGGAAAGUAUUAUGUUACGCCGUUCGGAUCUGCACU: -1.58

Series 2 — target: CCNB2, cyclin fold, Cln2 fusion (human); method: yeast growth competition, sequencing; sample: yeast; setting: weak parent motif; relative to: not given; direction: higher = stronger binding; measurement: normalised enrichment score
Parent: BRCA2 docking peptide (human); CKKRRALDFLSRL; partner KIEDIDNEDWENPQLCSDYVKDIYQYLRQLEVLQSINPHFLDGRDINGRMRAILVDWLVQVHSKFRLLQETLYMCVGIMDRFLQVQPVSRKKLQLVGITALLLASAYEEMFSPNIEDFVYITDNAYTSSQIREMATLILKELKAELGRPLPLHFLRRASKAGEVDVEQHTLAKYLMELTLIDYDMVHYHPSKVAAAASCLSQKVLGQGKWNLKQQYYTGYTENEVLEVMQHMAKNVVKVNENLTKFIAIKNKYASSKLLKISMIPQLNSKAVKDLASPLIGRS
R4A: 0.382
K2A: 0.56
S11A: 0.747
C1A: 0.476
F9A: 0.529
K3A: 0.526
F9L: 0.398

Series 3 — method: aptamer microarray, sandwich; form: DNA with 2'F-ANA; sample: in vitro; tested at: 200 nM; together with: Cy3 exosite-II aptamer, 400 nM; direction: higher = stronger binding; measurement: mean fluorescence intensity; sequence: GGTTGGTGTGGTTGG
Target: Prothrombin, mature alpha-thrombin (F2, Homo sapiens, UniProt P00734)
Setting: whole 15-mer aptamer, many near background
2'F-ANA at 1 2 4 5 10 11 13 14 15: 46.4 a.u.
2'F-ANA at 1 3 5 7 8 9 10 11: 45 a.u.
2'F-ANA at 1 2 3 4 8 10 15: 58.6 a.u.
2'F-ANA at 1 4 6 8 9 12 13 14: 53.5 a.u.
2'F-ANA at 2 3 4 5 6 7 12 13 14: 47.7 a.u.
2'F-ANA at 6 8 13 15: 401 a.u.
2'F-ANA at 1 2 5 6 9 10 12 15: 55.3 a.u.
2'F-ANA at 8 9 13: 431 a.u.
2'F-ANA at 1 2 5 6 7 12 13 14 15: 48.3 a.u.
2'F-ANA at 1 2 3 4 5 7 8 9: 72.4 a.u.
2'F-ANA at 1 3 5 6 8 9 10 12 13 14 15: 46.6 a.u.
2'F-ANA at 1 2 3 4 7 9 12 13 14: 65.2 a.u.
2'F-ANA at 2 3 6 7 8 9 11 12 13 14: 322 a.u.
2'F-ANA at 2 4 5 7 9 11 12 13 15: 125 a.u.
2'F-ANA at 1 5 8 10 13 14: 43.4 a.u.
2'F-ANA at 3 4 11 12 15: 909 a.u.
2'F-ANA at 1 5 7 11 12 13 14: 88.3 a.u.
2'F-ANA at 1 2 5 7 8 10 11 14 15: 61.5 a.u.
2'F-ANA at 3 5 6 7 11 13 14: 52 a.u.
2'F-ANA at 5 8 10 12 13 14: 44.7 a.u.
2'F-ANA at 3 5 6 10 11 15: 135 a.u.
2'F-ANA at 2 4 6 7 8 9: 317 a.u.
2'F-ANA at 4 7 8 9 15: 351 a.u.
2'F-ANA at 6 7 13 14 15: 232 a.u.
2'F-ANA at 1 5 6 10 11 15: 49.3 a.u.

Series 4 — method: RNA Bind-n-Seq; form: RNA; sample: in vitro; tested at: not given; relative to: input RNA pool; direction: higher = stronger binding; measurement: bound/input enrichment
Target: RING finger protein unkempt homolog, zinc fingers 1-6, GST-SBP tag (UNK, Homo sapiens, UniProt Q9C0B0, residues 30-357)
Setting: RNA with constant flanks, human-mouse chimeric sites, ends assumed
Shared flanks, not repeated: GGGAGUUCUACAGUCCGACGAUC … CAACAGAGGAUUGAGCAUCA
Residues (chain): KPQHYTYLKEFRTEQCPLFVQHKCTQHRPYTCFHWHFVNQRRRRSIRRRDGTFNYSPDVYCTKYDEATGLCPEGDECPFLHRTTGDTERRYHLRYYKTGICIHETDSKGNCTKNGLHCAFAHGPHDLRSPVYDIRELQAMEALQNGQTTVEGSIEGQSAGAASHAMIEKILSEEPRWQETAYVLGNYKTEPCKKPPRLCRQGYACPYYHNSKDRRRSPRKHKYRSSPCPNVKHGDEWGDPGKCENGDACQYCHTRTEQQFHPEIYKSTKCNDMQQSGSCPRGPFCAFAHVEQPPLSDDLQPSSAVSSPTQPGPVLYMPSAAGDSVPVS
CACGUGUCUGCAGUACUUGAUGUGGACUACUCUCCCACUGGGAAGGAAUUUGUGUCUGCUAGUUUCGAUAAGUCUAUUCGAAUCUUUCCUGUGGACAAGAGCCGAAGCAGGGAAGUGUAU: 0.444 ratio
CUGUUUUGACAGCCACACAAUCUUGGCAUGUAUUAAGAAAAAAAAAAAUCCCUGUUGAAGUAGUUUUUCCACCUAUCAGCACUGAGUAAAUGCCAUAAAUCCAUUGAAAUGGUCUAAAUA: 0.37 ratio
CUGAAAAACACAGAUAUCAAAGUUGUUGACUUUGGAAGUGCAACGUAUGAUGAUGAACAUCACAGUACUUUGGUGUCUACCCGGCACUACAGAGCUCCAGAGGUCAUUUUGGCUUUAGGU: 0.376 ratio
AAUAGAGGAUCCACCUCCCAAAGUGCUGGGAGUAAAGUCUGAUAUUACACACCUAACUUGAUGGAUAUAUAUUUUUUUUAAUAUGAAUCUUCCUGUUCGUCCAGGGAAGAAAGAUUUGUU: 1.09 ratio
AUGCAGUAUGAGACCAACAGCAUGGACUUCAAAGUUGGGGCAGAUGGGACAGUCUUCGCCACCCGGGAGCUGCAGGUCCCCUCCGAGCAGGUGGCGUUCACGGUGACUGCAUGGGACAGC: 0.222 ratio
AAACAUCUGUCUUUAAGCAUUCCAAGCGAGAAUGCUGGGGUGAUCAUUGUUGCCCAUGUGCCUUCUGACUGAGCUUUAAUGCUGUUCCAUGUUACAUCUUUCCUUCACUCCAGAAUUGUU: 0.162 ratio
AUGGAACAUUUCGAUGCGUCACUCAGUACCUAUUUCAAGGCCUUCCUGGGCCCCCGAGAUACAAGAGUCAAAGGAUGGUUUCUUCUGGACAAUUAUAUCCCUACGUUUGUCUGUUCUGUU: 0.133 ratio
AUAGAUGAAAUUGAUGUGGACCAGGAAGGAAUUGCUGAAAUGAUCCUGGAUGAAAAUGCUAUUGCUCAGGUCCCACGCCCUGGAACGUCUUUGAAGCUCCCUGGCACUAACCAAACAGGA: 0.492 ratio
AGGAGGAGGUUAAAGGGUGAGAGUGGGGUGGAAGACUGUGUCAUGGCUCUGGAGACACUGUUCAGUGUCCUGCUUUCUCUUUGCAGACUUAUGGCUCCUUACACGCCCUUUCUGACUGAG: 0.0848 ratio
UCUGGUCACACUCGUGUGUAUGGUGUUUGCUUUGUGGACACUUCACUGGGCAAGUUUUUCAUCGGCCAGUUUUCGGAUGACCGCCACUGUUCGAGAUUUAGGACGCUAGUGGCUCACUAU: 0.234 ratio
GUAUUUGUGCGCUCCCCACUCGUGUUUUUAAGUGUAUUUUUAUAAGACAUGUGUAUUUACAAUUGAGCUUUUGUUACAUAAUGCUGAAAUGCUACUGGAGAUUAUGAAAAAUGUUUCAAU: 0.19 ratio

Series 5 — target: CREB3L3, bZIP domain (human); method: DHFR protein complementation; sample: yeast; relative to: wild-type JUN-FOS pair; direction: higher = stronger binding; measurement: binding fitness
Setting: single substitutions, most at no-binding floor
Parent: JUN, bZIP domain (human); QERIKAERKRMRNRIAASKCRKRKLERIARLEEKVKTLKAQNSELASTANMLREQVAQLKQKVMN; partner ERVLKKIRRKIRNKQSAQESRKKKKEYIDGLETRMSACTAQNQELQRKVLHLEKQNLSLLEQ
A49N: -1.33 natural log
E32K: -1.61 natural log
E44N: -1.53 natural log
I28N: -1.51 natural log
M51A: -1.47 natural log
V35T: -1.48 natural log
E54I: -1.46 natural log
T48D: -1.49 natural log
I28E: -1.34 natural log
Q58S: -1.41 natural log
T48V: -1.44 natural log
A57G: -1.41 natural log
E33A: -1.52 natural log
S43G: -1.34 natural log

Series 6 — method: DHFR PCA, deep sequencing; sample: yeast; together with: (+)-ABA 0.032 µM; relative to: wild-type fitted maximum; direction: higher = stronger binding; measurement: relative binding score
Target: ABI1, truncated, D143A, DHFR fusion (Arabidopsis thaliana)
Setting: methotrexate growth selection, single substitutions
Parent: PYL1, truncated, DHFR fusion (Arabidopsis thaliana); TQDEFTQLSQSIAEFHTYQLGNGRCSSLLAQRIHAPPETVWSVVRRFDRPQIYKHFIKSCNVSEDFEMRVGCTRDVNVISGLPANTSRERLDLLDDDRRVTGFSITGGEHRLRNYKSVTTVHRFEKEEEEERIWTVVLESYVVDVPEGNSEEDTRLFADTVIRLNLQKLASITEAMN; partner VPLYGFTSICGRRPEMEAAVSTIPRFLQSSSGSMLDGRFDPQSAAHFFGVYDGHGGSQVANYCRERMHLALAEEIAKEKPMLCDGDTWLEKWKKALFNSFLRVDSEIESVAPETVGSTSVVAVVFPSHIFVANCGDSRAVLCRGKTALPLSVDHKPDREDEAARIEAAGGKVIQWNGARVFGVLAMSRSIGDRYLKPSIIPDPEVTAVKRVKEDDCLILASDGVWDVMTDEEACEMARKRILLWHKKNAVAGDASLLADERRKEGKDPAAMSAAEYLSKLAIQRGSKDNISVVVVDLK
S171M: 31.1%
G107C: 7.66%
P50M: 2.74%
K58E: 12%
M68V: 6.43%
C60A: -3.01%
F124D: 2.39%
V145N: -10.5%
L166V: 5.56%
E129W: 3.07%
G71M: -2.94%
L91N: 3.93%
Q19N: 22.9%
N61P: 4.07%
T86R: 10.2%

Single results of other studies
PhoQ, residues 284 288 289 292 302 303 AQGLTV  fold induction (PhoP, residues 12 14 15 18 19 LHSVQ (Escherichia coli, UniProt P23836); Sort-seq, refers to: YFP reporter; E. coli; PhoQ-PhoP variant library, together with: 10 µM Mg2+; relative to: high Mg2+ state, higher = stronger signaling): 0.758

A few entries again (series 5):
T48V: -1.44 natural log
I28N: -1.51 natural log
Q58S: -1.41 natural log
M51A: -1.47 natural log
T48D: -1.49 natural log
E44N: -1.53 natural log
V35T: -1.48 natural log
I28E: -1.34 natural log
A57G: -1.41 natural log
E33A: -1.52 natural log
E54I: -1.46 natural log
E32K: -1.61 natural log
A49N: -1.33 natural log
S43G: -1.34 natural log
